Experimental data of several laboratories.
A part holds a random share of what one study measured. Substitutions count along the parent as printed.

Block 1
Target: DDIT3, bZIP domain (human)
Technique: DHFR protein complementation
Sample: yeast
Setting: single substitutions, most at no-binding floor
Baseline: wild-type JUN-FOS pair
Reading: higher = stronger binding
Parent: JUN, bZIP domain (human); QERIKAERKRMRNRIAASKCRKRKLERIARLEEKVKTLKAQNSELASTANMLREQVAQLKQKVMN; partner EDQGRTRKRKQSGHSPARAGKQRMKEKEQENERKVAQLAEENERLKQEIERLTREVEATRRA
`L59T` gave a binding fitness of -0.324 natural log.
With `T48P` the binding fitness was -1.11 natural log.
`Q41I` gave a binding fitness of 0.094 natural log.
`K34S` gave a binding fitness of -0.0547 natural log.
With `E44A` the binding fitness was 0.0524 natural log.
`Q58P` gave a binding fitness of -0.996 natural log.
`L38K` gave a binding fitness of -1.25 natural log.
The binding fitness of `L31Q` is reported as -0.388 natural log.

Block 2
Target: CCNE2, cyclin fold, Cln2 fusion (human)
Technique: yeast growth competition, sequencing
Sample: yeast
Setting: strong parent motif
Baseline: not given
Reading: higher = stronger binding
Parent: viral docking peptide; KGVKRKLFAEDSS; partner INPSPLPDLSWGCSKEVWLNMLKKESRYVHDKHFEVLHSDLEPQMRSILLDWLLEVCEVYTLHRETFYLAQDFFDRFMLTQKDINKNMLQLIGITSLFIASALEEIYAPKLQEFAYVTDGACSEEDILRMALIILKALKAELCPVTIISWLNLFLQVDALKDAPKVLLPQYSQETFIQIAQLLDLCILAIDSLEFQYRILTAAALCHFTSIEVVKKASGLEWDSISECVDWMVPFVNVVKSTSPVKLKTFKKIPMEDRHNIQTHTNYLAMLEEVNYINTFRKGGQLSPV
`E10G`: “normalised enrichment score” 5.76.
`S12K` — result for “normalised enrichment score”: 6.28.
`R5L`: “normalised enrichment score” 0.214.
Under “normalised enrichment score”, `S13A` is recorded as 6.3.
`F8H` — result for “normalised enrichment score”: 0.0684.
`R5C` — result for “normalised enrichment score”: 1.09.
`A9P`: “normalised enrichment score” 6.1.
For `A9D`, “normalised enrichment score” read 6.82.
For `F8G`, “normalised enrichment score” read 0.699.
`L7A` — result for “normalised enrichment score”: -0.237.
For `K4I`, “normalised enrichment score” read 5.89.
`K6D`: “normalised enrichment score” 0.548.
`K6V` — result for “normalised enrichment score”: 6.19.
For `L7R`, “normalised enrichment score” read 0.566.
`F8C`: “normalised enrichment score” 0.57.
Under “normalised enrichment score”, `G2D` is recorded as 6.04.
Under “normalised enrichment score”, `K4D` is recorded as 0.455.
Under “normalised enrichment score”, `E10L` is recorded as 5.37.
Under “normalised enrichment score”, `E10N` is recorded as 6.26.
For `G2H`, “normalised enrichment score” read 6.51.
For `K4E`, “normalised enrichment score” read 0.871.
Under “normalised enrichment score”, `D11W` is recorded as 5.43.
Under “normalised enrichment score”, `V3A` is recorded as 5.56.
`F8M`: “normalised enrichment score” 0.799.
`D11G`: “normalised enrichment score” 6.5.

Block 3
Target: UBE2D4 UBC core domain (UniProt Q9Y2X8)
UniProt Q9Y2X8, sequence (whole entry, looked up): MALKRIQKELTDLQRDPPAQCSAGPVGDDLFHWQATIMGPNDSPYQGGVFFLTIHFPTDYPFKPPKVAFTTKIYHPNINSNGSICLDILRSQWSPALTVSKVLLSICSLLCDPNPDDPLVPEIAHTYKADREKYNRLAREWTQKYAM
Technique: yeast two-hybrid
Sample: yeast
Setting: mostly zero background
Baseline: not given
Reading: higher = stronger interaction
B1: ZMIZ2 RING domain (UniProt Q8NF64); chain GTIPGTPGPNGEDGVEQTAIKVSLKCPITFRRIQLPARGHDCRHIQCFDLESYLQLNCERGTWRCPVCNKTALLEGLEVDQYMLGILIYIQNSDYEEITIDPTCSWK
B2: UBOX5 RING domain (UniProt O94941); chain EQPGSILGPECASCKRVFSPYFKKEPVYQLPCGHLLCRPCLGEKQRSLPMTCTACQRPVASQDVLR
B3: SYTL4 RING domain (UniProt Q96C24); chain RGSQHYSDRTCARCQESLGRLSPKTNTCRGCNHLVCRDCRIQESNGTWRCKVCAKEIELKKAT
B4: RBCK1 RING domain (UniProt Q9BYM8); chain SLVLNTEPAECPVCYSVLAPGEAVVLRECLHTFCRECLQGTIRNSQEAEVSCPFIDNTYSCSGKLLEREIK
B5: RNF121 RING domain (UniProt Q9H920); chain MPTKHLSDSVCAVCGQQIFVDVSEEGIIENTYRLSCNHVFHEFCIRGWCIVGKKQTCPYCKEKVDLKRMFS
B6: DZIP3 RING domain (UniProt Q86Y13); chain PDEEEEEEEPCVICHENLSPENLSVLPCAHKFHAQCIRPWLMQQGTCPTCRLHVLLPEEFP
B7: SH3RF1 RING domain (UniProt Q7Z6J0); chain DESALLDLLECPVCLERLDASAKVLPCQHTFCKRCLLGIVGSRNELRCPECRTLVGSGVEEL
B8: RNF19A RING domain (UniProt Q9NV58); chain ISKQIGDFIECPLCLLRHSKDRFPDIMTCHHRSCVDCLRQYLRIEISESRVNISCPECTERFNPHDIR
B9: RNF133 RING domain (UniProt Q8WVZ7); chain DEEINPNGDSCVICFERYKPNDIVRILTCKHFFHKNCIDPWILPHGTCPICKCDILKVLGIQ
`B1 (ZMIZ2 RING domain)`: “lacZ reporter activity” 0.
`B2 (UBOX5 RING domain)`: “lacZ reporter activity” 0.
`YQNEVDDDLVCHICLQPLLQPLDTPCGHTFCYKCLRNFLQEKDFCPLDRKRLHFKLCKK (LNX2 RING domain (UniProt Q8N448))`: “lacZ reporter activity” 0.
`B3 (SYTL4 RING domain)` — result for “lacZ reporter activity”: 0.
Under “lacZ reporter activity”, `AMYLQENGIDCPKCKFSYALARGGCMHFHCTQCRHQFCSGCYNAFYAKNKC (RNF31 RING domain (UniProt Q96EP0))` is recorded as 0.
`B4 (RBCK1 RING domain)` — result for “lacZ reporter activity”: 0.
`FDGDVDPDLKCALCHKVLEDPLTTPCGHVFCAGCVLPWVVQEGSCPARCRGRLSAKELN (PDZRN3 RING domain (UniProt Q9UPQ7))` — result for “lacZ reporter activity”: 0.
Under “lacZ reporter activity”, `AVPSGLEENLCKICMDSPIDCVLLECGHMVTCTKCGKRMNECPICRQYVIRAVHVF (RFFL RING domain (UniProt Q8WZ73))` is recorded as 0.
Under “lacZ reporter activity”, `KLRKLKEAMLCMVCCEEEINSTFCPCGHTVCCESCAAQLQSCPVCRSRVEHVQHVY (MYLIP RING domain (UniProt Q8WY64))` is recorded as 0.
For `B5 (RNF121 RING domain)`, “lacZ reporter activity” read 0.
`B6 (DZIP3 RING domain)` — result for “lacZ reporter activity”: 0.
`B7 (SH3RF1 RING domain)` — result for “lacZ reporter activity”: 0.
For `PEDRESLKSACVVCLSSFKSCVFLECGHVCSCTECYRALPEPKKCPICRQAITRVIPLY (MUL1 RING domain (UniProt Q969V5))`, “lacZ reporter activity” read 13100.
`GSDDEEIPFKCFICRQSFQNPVVTKCRHYFCESCALQHFRTTPRCYVCDQQTNGVFNPA (RNF113A RING domain (UniProt O15541))` — result for “lacZ reporter activity”: 0.
Under “lacZ reporter activity”, `B8 (RNF19A RING domain)` is recorded as 0.
For `B9 (RNF133 RING domain)`, “lacZ reporter activity” read 18100.

Mixed results
The pseudovirus infection of C#CCN[C@@H]1CCc2ccccc21 is reported as 131% (HEK-293T; VSV pseudotyped with VSV-G; 10 µM, 16 h).

Some of these lines once more (mixed results):
The pseudovirus infection of C#CCN[C@@H]1CCc2ccccc21 is reported as 131% (HEK-293T; VSV pseudotyped with VSV-G; 10 µM, 16 h).
